Assay results of several laboratories.
Every numbered part comes from another study and shows a few of its results, in no order. Substitutions count along the parent as printed.

Block 1
Target: RING finger protein unkempt homolog, zinc fingers 1-6, GST-SBP tag (UNK, Homo sapiens, UniProt Q9C0B0, residues 30-357)
Technique: RNA Bind-n-Seq
Molecule type: RNA
Matrix: in vitro
Concentration: not given
Setting: RNA with constant flanks, human and mouse sites, ends assumed
Baseline: input RNA pool
Reading: higher = stronger binding
Shared flanks, not repeated: GGGAGUUCUACAGUCCGACGAUC … CAACAGAGGAUUGAGCAUCA
Target sequence (chain): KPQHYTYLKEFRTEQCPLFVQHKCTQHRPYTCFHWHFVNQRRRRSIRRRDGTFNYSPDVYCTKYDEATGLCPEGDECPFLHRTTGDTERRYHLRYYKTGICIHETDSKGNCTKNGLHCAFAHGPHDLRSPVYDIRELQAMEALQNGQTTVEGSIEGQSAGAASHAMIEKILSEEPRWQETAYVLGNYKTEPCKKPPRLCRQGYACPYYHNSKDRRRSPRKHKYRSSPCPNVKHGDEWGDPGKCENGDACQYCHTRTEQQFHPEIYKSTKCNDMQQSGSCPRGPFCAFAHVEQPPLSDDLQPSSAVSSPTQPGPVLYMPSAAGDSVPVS
| Strand | bound/input enrichment [ratio] |
| --- | --- |
| UUCAUUUAUACCAUCUAAUAUAUGACACACUGUUGUAGUAUGUAUAAUUUUGUGAUCUUUAUUUUCCCUUUGUAUUCAUUUUAAGCAUCUAAAUAAAUUGCUGUAUUGUGCUUAAUGUAA | 1.08 |
| UCUGUGUGCUCUGAGGGAGGGUCGCGCCGCCAGCCACCGCCGGAGGAGCCCCUCGGGCCGUUGUAAGCAUCAAUAAUGUCUUUCAUCUUUGAGUGGAUCUACAAUGGCUUCAGCAGUGUG | 0.103 |
| AUCAGUGAGGUGAAAAACAGACCUGAUCAGGGGCUAGAGGGUCUGACUUCAGGGCUCCAGUGCCCUGUUGAAGCAGAGCAGCUCUCUGACACAGAUUCUGUGCAAAUGUUUCUUGAACUU | 0.0733 |
| AAUGAACACUUCAAUGUGUUCCUCACUGCUAAGGACCUGAAUGCCUACAAGAAGCAAGGGAUAGCAUUGCUGAGCAGAGUGGGUGAGUCAGUCAAGCACGUCACCGGAGGCUAUAAGCUG | 0.138 |
| GAUGUUUCAUCCAUCUACCGGGUACCCUUGUUGUUAGAAGAGCAAGGGGUUGUAGACUACUUUCUUCGGAGACUUGACCUUCCUAUUGAGAGACAGUCACGAAAGAUGCUGAUGAAAUGG | 0.184 |
| CCCUGCAUUAGUUGCUCAUAAAUCAGCCUUACGAUGGGCCGGACUGUGAUAGUACUUGGCGGAGGUAUCAGUGGAUUGGCCGCAAGUUAUCAUCUGAUCCGAGGCCCCAGUCCUCCUAAG | 0.144 |
| GAUCUUGCUCUGUAGCCUAGGCUAGUCUUGAAUUUGUAAGCUCUUGAGACUGAUUGACCCUCUUACCUGACUCUUCUCCUUUAAAGUAUUCCAGUUGACGUAUUGUGUCGUAGGCACAUC | 0.399 |
| UAUGCUGGGACCGCUAGCCCUUCCGGCGCGCCUCAGGACUUCGGGUCCCCUCACCCCGGGCGGAUGCCCAAAGACUCCGCCUUCCCAAGAGCCCCUGCGGCCGGGCGCGAAAAUGGCGGC | 0.112 |
| GAUGAUGUAGCAGAAGCAGAUAUAAUUUCUACAGUAGAAUUUAAUCAUUCUGGAGAAUUACUAGCAACAGGAGAUAAAGGUGGUAGAGUUGUCAUCUUUCAACAGGAGCAGGAGAACAAA | 0.582 |
| UUGGUGACUAUUAUGUAUGGUUAUAAAUUGAGAGACUUAUACAGAAACAAUUUUGAAGAUCUUCAUUGCAAAUUCUAUCAACUUGAGAAACUAAUGCAGGAACAGCUGCCAGACCUGUAC | 0.226 |
| GCUAGUUUUAUCCCUGCAGUGAAUGAUUUGACCUCUGAUCUCUUUCGUACCAAAUCCAAAAGUGAAGAAAUCAAGAUUGAACUGGAAAAACUUGAAAAAAAUUUAACUGCAACUUUAGUA | 3.62 |

Block 2
Target: Interferon regulatory factor 5, full length, phosphomimetic (IRF5, Homo sapiens, UniProt Q13568-2, residues 1-514, K96S/S451D/S453D/S456D/S462D)
Technique: protein-binding microarray
Molecule type: double-stranded DNA, one strand shown
Matrix: in vitro
Concentration: 250 nM
Setting: 60-bp whole probe
With: salmon DNA 0.4 mg/ml
Baseline: random background probes
Reading: higher = stronger binding
Shared flanks, not repeated: GCCTAGCAC … GTCTTGATTCGCTTGACGCTGCTG
| Strand | log fluorescence |
| --- | --- |
| GACGGCATCGGTTTCGGGACGTGCTAG | 3.11 z-score |
| GACGGTATCGGTCTCGGGACGTGCTAG | 4.74 z-score |
| GACGATTTCGACTTTCGGGACGTGCTA | 6.61 z-score |
| TTAGGTTTCCTTTCCGTTTAGTGCTAG | 2.3 z-score |
| TTAGGTATCGACTTTCGGATAGTGCTA | 7.82 z-score |
| TTAGGTATCCTTCTCCTTTTGTGCTAG | 0.499 z-score |
| CCACATATGCTTTTTAGAAAGTGCTAG | 0.398 z-score |
| TAGATATTATATCTGTGTTAGTGCTAG | 0.922 z-score |
| TTAGGTCTCGGTCTCCGTTAGTGCTAG | 0.314 z-score |
| GACGGTATCGGGTATCGGGGCGTGCTA | 3.2 z-score |
| TAAGATTTCGGGACTGGATTAGTGCTA | 1.66 z-score |
| TTAGGTATCGGACTGGTTTAGTGCTAG | 1.6 z-score |
| TTCGGTCTCGGTATCGGTTAGTGCTAG | 6.14 z-score |
| GACTGACTGCTACTGCTGACGTGCTAG | -0.661 z-score |
| GACGGTTTTCTTCTCCTGACGTGCTAG | 0.727 z-score |
| GACGATTTCAGTTCCGAGAAGTGCTAG | 1.54 z-score |

Block 3
Target: TEF, bZIP domain (human)
Technique: DHFR protein complementation
Matrix: yeast
Setting: single substitutions, most at no-binding floor
Baseline: wild-type JUN-FOS pair
Reading: higher = stronger binding
Parent: JUN, bZIP domain (human); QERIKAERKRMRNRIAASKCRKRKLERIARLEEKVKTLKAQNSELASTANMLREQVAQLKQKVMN; partner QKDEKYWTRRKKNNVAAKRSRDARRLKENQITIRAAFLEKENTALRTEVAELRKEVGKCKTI
| Variant | binding fitness [natural log] |
| --- | --- |
| A29N | -1.44 |
| Q55G | -1.26 |
| E44G | -1.46 |
| K39E | -1.26 |
| A46D | -1.49 |
| K39P | -1.52 |
| S43G | -1.37 |
| L52H | -1.51 |
| M51A | -1.17 |
| M51N | -1.48 |
| E33H | -1.43 |
| S47A | -1.4 |
| A40S | -1.39 |
| S47Y | -1.53 |

Block 4
Target: Histone acetyltransferase KAT6A, both winged helices, GST fusion (KAT6A, Homo sapiens, UniProt Q92794, residues 1-181)
Technique: protein binding microarray
Molecule type: double-stranded DNA, one strand shown
Matrix: in vitro
Concentration: not given
Setting: 8-mer, flanks averaged, mean of 2 arrays, mostly near background
Baseline: not given
Reading: higher = stronger binding
Residues (chain): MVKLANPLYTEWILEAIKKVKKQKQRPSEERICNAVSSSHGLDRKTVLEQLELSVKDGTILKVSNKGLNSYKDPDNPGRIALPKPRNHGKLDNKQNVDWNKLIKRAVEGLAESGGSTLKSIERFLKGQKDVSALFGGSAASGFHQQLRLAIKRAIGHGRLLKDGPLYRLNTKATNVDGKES
| Strand | E-score |
| --- | --- |
| AAACGTCT | -0.0995 |
| AATTTGCA | -0.127 |
| ACAACATC | 0.0076 |
| CCGGCCGG | 0.373 |
| GCACACCA | -0.034 |
| CCATATAC | -0.00263 |
| ACATCTGC | -0.0891 |
| ATGAAAAA | -0.0157 |
| GGCTTACC | 0.0336 |
| GGGGAAAC | 0.0947 |
| CCGGCTCA | 0.0991 |
| CCTTAACG | 0.0913 |
| AAACTTAG | -0.161 |
| CTGCCGTC | 0.182 |
| CGAATTGC | 0.129 |
| GCTCGGCC | 0.217 |
| GCGATTAA | 0.0782 |
| CTCGTGAA | -0.296 |
| GATTCCCA | -0.116 |
| AAATCATA | 0.119 |
| AGGCCCCA | -0.0533 |
| CGTTTAGA | 0.0935 |
| CATAGCGC | 0.268 |
| GAAATGTA | -0.157 |

Block 5
Target: Centromere-binding protein 1, full length, N-terminal tag (CBF1, Saccharomyces cerevisiae, UniProt P17106, residues 1-351)
UniProt P17106, sequence (whole entry, looked up): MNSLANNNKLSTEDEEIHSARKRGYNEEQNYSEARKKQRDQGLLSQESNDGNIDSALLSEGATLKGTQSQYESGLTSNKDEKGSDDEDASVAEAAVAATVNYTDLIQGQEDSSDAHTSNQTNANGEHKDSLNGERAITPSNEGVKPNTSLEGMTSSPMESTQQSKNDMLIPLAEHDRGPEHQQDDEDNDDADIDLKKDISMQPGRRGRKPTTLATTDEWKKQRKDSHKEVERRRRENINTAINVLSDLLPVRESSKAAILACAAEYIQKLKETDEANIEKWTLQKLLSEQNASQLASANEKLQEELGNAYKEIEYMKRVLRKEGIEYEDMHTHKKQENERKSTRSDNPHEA
Technique: protein-binding microarray
Molecule type: double-stranded DNA, one strand shown
Matrix: in vitro
Concentration: 0.8 µM
Setting: whole 60-bp probe, no competitor
Reading: higher = stronger binding
Shared flanks, not repeated: … GTCTTGATTCGCTTGACGCTGCTG
| Strand | fluorescence intensity [a.u.] |
| --- | --- |
| GAACGATTCAAAGCAGGTGAATTTCCATTACGTTAG | 530 |
| CCTAACTACTATATGCACGTGCAATAGCTTCGTACA | 11000 |
| GAAAATTATTTCTTTCACATGATTAAAATTATATAG | 2320 |
| CTAGCTCCTATACATGATGCAACAGTAATCTACTTC | 570 |
| CTAAAATATTTATGTCACGTAGCGAGCTTACTTTTC | 835 |
| CCTAACTACTATATAAGTGTGATATAGCTTCGTACA | 557 |
| GAAGTTTCGCCCATTCATCTGACAGGACAGAATTAG | 539 |
| CTAATATAGCATTCACGCCTGGTACCACAGGAGTTC | 527 |
| GAATCATGTGATTTCCATGTGCGGCAACTTCAATAG | 4700 |
| GAATATTATTTAATGCACATGTTAATGGACGGTTAG | 850 |
| CTAGTTAAGAATGGTCACGTCTTCCTTTGGCTTTTC | 960 |
| CTAGTGCTTCTCCACGTGGATACGTACCGTTGTTTC | 3300 |
| GAATCCAGAACCAGCCGTCAGGGATATTTGAATTAG | 508 |
| GAAAAAAAATTAGATCACAAAAAGATAACTACATAG | 517 |
| CCTAACTACTATATAAATGACCAATAGCTTCGTACA | 575 |
| GAAACAAATTTGACACACATGATTGAATCATTATAG | 950 |
| GAACTTTCTGGCAGGCACGCTATGATGTGCTAATAG | 545 |
| GAAGAGCAGGATGATCCCGTGCCCGAACTGGATTAG | 1340 |
| GAAGTATAGATGAATCACGCTTGATTTGATGGATAG | 620 |
| GAACTTCTACGGAAGCCCACCAGATAAGCGCCTTAG | 441 |

Further values, each from its own experiment
Organism: Saccharomyces cerevisiae
Observed: binding
Technique: competitive growth deep sequencing
Molecule type: peptide
Strain: cyclin D3-Cln2 fusion strain
Concentration: concentration not given
Reading: direction not given
| Sequence | setting | growth enrichment score |
| --- | --- | --- |
| KGVKRKLFAEDSS | RxL motif peptides | -0.035 |
| ALLRRLQDVANDRGSH | tiling library, Cln2 subtracted | 4 |

Excerpt of the above (block 4):
| Strand | E-score |
| --- | --- |
| CCTTAACG | 0.0913 |
| AAACTTAG | -0.161 |
| CTGCCGTC | 0.182 |
| CGAATTGC | 0.129 |
| GCTCGGCC | 0.217 |
| GCGATTAA | 0.0782 |
